Experimental data gathered from unrelated publications.
Protocols differ between the studies behind these lines. Values joined by “and” are separate records of one study, mostly repeats; a detail may differ. ± gives the spread as reported.
DRD4: D(4) dopamine receptor (DRD4, Homo sapiens, UniProt P21917)
Sequence of UniProt P21917 (whole entry, looked up): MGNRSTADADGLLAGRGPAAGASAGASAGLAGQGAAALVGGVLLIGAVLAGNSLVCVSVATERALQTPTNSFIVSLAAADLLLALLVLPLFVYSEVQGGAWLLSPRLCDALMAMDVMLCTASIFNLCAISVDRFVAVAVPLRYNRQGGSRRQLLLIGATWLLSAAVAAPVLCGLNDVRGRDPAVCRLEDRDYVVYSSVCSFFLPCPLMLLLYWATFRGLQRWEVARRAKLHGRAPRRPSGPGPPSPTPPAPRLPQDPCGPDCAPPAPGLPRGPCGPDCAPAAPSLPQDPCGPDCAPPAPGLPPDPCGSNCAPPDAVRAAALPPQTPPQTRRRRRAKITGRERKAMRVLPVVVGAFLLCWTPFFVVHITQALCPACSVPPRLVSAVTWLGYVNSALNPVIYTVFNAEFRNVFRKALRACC
Sequence of UniProt Q92851 (whole entry, looked up): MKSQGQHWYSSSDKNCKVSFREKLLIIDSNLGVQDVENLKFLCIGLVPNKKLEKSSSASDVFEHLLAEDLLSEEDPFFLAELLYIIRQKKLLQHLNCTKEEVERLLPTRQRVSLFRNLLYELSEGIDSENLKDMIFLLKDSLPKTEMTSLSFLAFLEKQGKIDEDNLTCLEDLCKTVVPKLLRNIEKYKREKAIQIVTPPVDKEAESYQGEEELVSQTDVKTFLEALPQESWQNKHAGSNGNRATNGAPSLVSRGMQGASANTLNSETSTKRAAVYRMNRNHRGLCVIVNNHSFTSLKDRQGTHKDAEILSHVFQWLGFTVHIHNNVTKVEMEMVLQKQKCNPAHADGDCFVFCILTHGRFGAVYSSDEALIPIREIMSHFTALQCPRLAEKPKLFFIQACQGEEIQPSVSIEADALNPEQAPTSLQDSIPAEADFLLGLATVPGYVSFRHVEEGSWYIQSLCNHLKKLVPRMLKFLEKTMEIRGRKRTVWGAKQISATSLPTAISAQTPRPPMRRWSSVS

C[C@@H]1CN(c2ccnc(C(=O)N[C@H]3C[C@@H]3c3ccccc3)c2)CC[C@@H]1O  creatine concentration (female heterozygous SLC6A8 P549L mice, hippocampus; oral, 30 mg/kg once daily): 795 µg/mL and 931 µg/mL and 1060 µg/mL
COC1CN([C@H]2CC[C@H]([C@@]3(C)Oc4c(Cl)cc(C(=O)NCc5c(SC)cc(C)[nH]c5=O)c(C)c4O3)CC2)C1  log2 fold change (RNA-seq, item: PIAS2 mouse homolog; mouse, HT-1376 xenograft, whole blood; dose not given; baseline: vehicle): 0.427
CC[C@H](NC(=O)[C@@H](NC(=O)[C@H](CC(=O)O)NC(C)=O)[C@@H](C)O)C(=O)N[C@@H](CC(=O)O)C(=O)COC(=O)c1c(C)cccc1C  kinact/KI (Caspase-10 (CASP10, Homo sapiens, UniProt Q92851); enzyme activity, inhibitor): 122000 M⁻¹ s⁻¹
OC(COCC1COc2ccccc2O1)CN1CCN(c2ccccc2)CC1 (stereo not shown)  larval motion (zebrafish larvae, 7 dpf; 10 µM, minute 6): 3 ± 1.2 pixels/frame
CCCC[C@H](NC(=O)CCCCCCCNC(=O)CN1CCN(CC(=O)O)CCN(CC(=O)O)CC1)C(=O)N[C@H]1CC(=O)NCCCC[C@@H](C(N)=O)NC(=O)[C@H](Cc2c[nH]c3ccccc23)NC(=O)[C@H](CCCNC(=N)N)NC(=O)[C@@H](Cc2ccccc2)NC(=O)[C@H](Cc2c[nH]cn2)NC1=O [technetium-99m labelled]  tissue uptake (C57 mouse, spleen; intravenous, 0.037 MBq, 4 h): 0.01 ± 0.07 %ID/g
COc1ccccc1-c1ccncc1C(=O)Nc1nnc(OCc2ccc(Cl)cc2)s1  colony survival (Brca1 Δ11/Δ11 MEF sgGFP, Mus musculus; 10 µM, mean of all runs; baseline: 0 µM): 55.2%
CC(=O)[O-].O.O.O.O.[Ni+2].[O-]c1ccc(Br)cc1C=NCCN1CCOCC1  inhibition (superoxide scavenging; 160 µM): 41.4%
CN1CCCNC(=O)c2cccc(c2)C(=O)NCCCN(C)CCCNc2cccc3c2C(=O)c2cccc(c2C3=O)NCCC1  log2 fold change (SAS; RNA-Seq, item: NLRX1 mRNA; 1 µM, 6 h; baseline: untreated cells): 1.41
Cc1ncsc1-c1ccc(C(C)NC(=O)C2CC(O)CN2C(=O)C(NC(=O)CCCCCCCCCCN2CCCC(Nc3ncc(Cl)c(Nc4ccccc4S(=O)(=O)C(C)C)n3)C2)C(C)(C)C)cc1 (stereo not shown)  log2 fold change (22Rv1; RNA-seq, item: PTER mRNA; concentration not given; baseline: DMSO): -1.13
O=C(CCCCCCc1ccccc1)c1ncc(-c2ccc(CBr)cn2)o1  cold allodynia (mouse, chronic constriction injury, ipsilateral paw; i.p., 30 mg/kg, 1, 3, 6 h): decreased
O=C(CCN1CCN(C/C=C/c2ccccc2)CC1)Nc1ccc2c(c1)CCC2  larval motion (locomotor activity in dark; zebrafish larvae, 7 dpf; 10 µM, minute 3, dark phase): 4.8 ± 0.9 pixels/frame
Cc1cn(CC(=O)N(CC(=O)N[C@H]2COC[C@@H]2N(CC(=O)NCCOCCOCC(N)=O)C(=O)Cn2cnc3c(N)ncnc32)[C@H]2COC[C@@H]2NC(=O)CN(C(=O)Cn2cnc3c(N)ncnc32)[C@H]2COC[C@@H]2NC(=O)CN(C(=O)Cn2cnc3c(=O)[nH]c(N)nc32)[C@H]2COC[C@@H]2NC(=O)CN(C(=O)Cn2cc(C)c(=O)[nH]c2=O)[C@H]2COC[C@@H]2NC(=O)CN(C(=O)Cn2cnc3c(=O)[nH]c(N)nc32)[C@H]2COC[C@@H]2NC(=O)CN(C(=O)Cn2cc(C)c(=O)[nH]c2=O)[C@H]2COC[C@@H]2NC(=O)CN(C(=O)Cn2cnc3c(N)ncnc32)[C@H]2COC[C@@H]2NC(=O)CN(C(=O)Cn2cnc3c(=O)[nH]c(N)nc32)[C@H]2COC[C@@H]2N)c(=O)[nH]c1=O  Tm (UV melting; RNA duplex with T·C mismatch; pH 7.2, 1 µM each strand): 52.5 °C
COc1cc(O)ccc1CCC(c1ccc(O)cc1)c1cc2c(c(C)c1O)OC(c1ccc(O)cc1)CC2 (mixture of isomers)  amount (item: TXB2; human whole blood; 30 µM, together with: Escherichia coli): 25400 ± 13000 pg/mL blood
Nc1ncc(-c2cc(-c3cnn(CC(F)(F)F)c3)ncc2F)nc1C(=O)NC1CNCC(F)C1 (stereo not shown)  remaining binding (AXL; KINOMEscan; 1 µM; baseline: DMSO control): 20%
CO.COc1ccc2c(c1)c(CC(=O)[O-])c(C)n2C(=O)c1ccc(Cl)cc1.COc1ccc2c(c1)c(CC(=O)[O-])c(C)n2C(=O)c1ccc(Cl)cc1.O.[Co+2].c1ccc(Nc2ccccn2)nc1  DPPH radical scavenging (DPPH; methanol; concentration not given, 30 min): 6.73 ± 0.65%
Cc1cn(CC(=O)N(CCNC(=O)CN(CCNC(=O)CN(CCNC(=O)CN(CCNC(=O)CN(CCNC(=O)CN(CCNC(=O)CN(CCNC(=O)CN(CCN)C(=O)Cn2cnc3c(=O)[nH]c(N)nc32)C(=O)Cn2cnc3c(N)ncnc32)C(=O)Cn2cc(C)c(=O)[nH]c2=O)C(=O)Cn2cnc3c(=O)[nH]c(N)nc32)C(=O)Cn2cc(C)c(=O)[nH]c2=O)C(=O)Cn2cnc3c(=O)[nH]c(N)nc32)C(=O)Cn2cnc3c(N)ncnc32)CC(=O)NCCN(CC(=O)NCCOCCOCC(N)=O)C(=O)Cn2cnc3c(N)ncnc32)c(=O)[nH]c1=O  Tm (UV melting; DNA duplex with T·T mismatch; pH 7.2, 1 µM each strand): 28.2 °C
Cc1cc(OCCOCCn2ccnc2)cc(C(C)C)c1  larval motion (zebrafish larvae, 7 dpf; 10 µM, minute 6): 7.7 ± 1.2 pixels/frame
C=CC(=O)Nc1cccc(Cn2ncc3cnc(Nc4cnn(CCOC)c4)nc32)c1  binding (human ABL1(Y253F)-phosphorylated; KINOMEscan; 100 nM; baseline: control): 7.7%
CNS(=O)(=O)Nc1nccc(Cc2c(C)c3ccc(Oc4ncccc4F)cc3oc2=O)c1F  IC50 (HCC44; cell viability; 7 days): 899 nM
COc1ccc(C(=O)CCc2cc(C(CCc3ccc(O)cc3OC)c3ccc(O)cc3)c(O)cc2OC)cc1 (racemic)  14-HDHA level (human blood; 3 µM, together with: A23187): 957 ± 256 pg/mL
CCOC(=O)C1CCN(CCC(=O)Nc2ccccc2F)CC1  larval motion (zebrafish larvae, 7 dpf; 10 µM, minute 4): 0.5 ± 0.3 pixels/frame
CN(C)C(=O)c1ccnc(N2Cc3cn(Cc4ccc(F)cc4F)nc3C2)n1  paired-pulse ratio (mouse, hippocampal slice, Schaffer collaterals; dose not given, interstimulus interval 200; baseline: second over first response): 1.45 and 1.95 and 1.24 and 1.42 and 1.37 and 1.34
COc1ccc(CN2CCC(F)(F)C(COc3cccc(F)n3)C2)cc1F (stereo not shown)  Ki (DRD4; ligand displacement, radioligand; cell membranes): 150 nM
CCc1cc(OCCOCCN(C)C)ccc1Cl  larval motion (locomotor activity in dark; zebrafish larvae, 7 dpf; 10 µM, minute 7, dark phase): 2 ± 1 pixels/frame
COc1ccccc1C(C[N+](=O)[O-])c1c(-c2ccccc2)[nH]c2ccccc12 (stereo not shown)  maximal possible effect (mechanical allodynia, von Frey; mice, CFA inflammatory pain; dose not given, 6 h, highest dose): 75%
O=C(CCN1CCN(C/C=C/c2ccccc2)CC1)Nc1ccccc1  larval motion (zebrafish larvae, 7 dpf; 10 µM, minute 4): 12.3 ± 1.7 pixels/frame
Cc1cnc2nc1Nc1cccc(c1)COC/C=C/COCc1cc(ccc1OCCN1CCOCC1)N2  CD71/Ter119 cells (BALB/c mice rhEPO-induced polycythemia, bone marrow; 75 mg/kg): 18.4% and 16.7% and 16.6% and 12.9% and 16.8% and 18.2%
COc1ccc(CN2CC(COc3cccc(F)c3)CC(F)(F)C2)cc1F (stereo not shown)  Ki (DRD4; ligand displacement, radioligand; cell membranes): 1280 nM

For quick reference, copied from above:
C=CC(=O)Nc1cccc(Cn2ncc3cnc(Nc4cnn(CCOC)c4)nc32)c1  binding (human ABL1(Y253F)-phosphorylated; KINOMEscan; 100 nM; baseline: control): 7.7%
CNS(=O)(=O)Nc1nccc(Cc2c(C)c3ccc(Oc4ncccc4F)cc3oc2=O)c1F  IC50 (HCC44; cell viability; 7 days): 899 nM
